Results gathered from unrelated publications.
Each numbered part is a random draw from the data of one study; scales do not carry over between parts. Substitutions count along the parent as printed.

Sample 1
Target: RNA binding protein fox-1 homolog 2, RRM domain, GST-SBP tag (RBFOX2, Homo sapiens, UniProt O43251-10, residues 100-194)
Method: RNA Bind-n-Seq
Molecule type: RNA
Matrix: in vitro
Concentration: 365 nM
Setting: natural RNA segment, single round, ends assumed
Relative to: no-protein control
Direction: higher = stronger binding
Target sequence (chain): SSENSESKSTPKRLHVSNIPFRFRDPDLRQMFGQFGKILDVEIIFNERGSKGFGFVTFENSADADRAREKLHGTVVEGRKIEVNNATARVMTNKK
`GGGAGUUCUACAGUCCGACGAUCAGGGAGCCACUGUCGCCGCAGCACACCAGGAUUGGGGCUCUCAGGCUGUGCUGCCCUAGACCCGCCACACCAAGCCAUCCGCCCCUCACAGACCCUACAAGACGAUGUUAUGGAAUUCUCGGGUGCCAA`: “RBNS enrichment (R)” 0.544.
`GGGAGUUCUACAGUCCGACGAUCAUAUAUUAUUUUGUAGUAUCUCAGACUUUGCAUAAAUACUAUUAUUUUUGUAUGGAAUUUUUUACAGAAGAGCUAUUUCUGUAUAUGUAAUUAUUUGUGUUUUUUGAAAUUGGAAUUCUCGGGUGCCAA`: “RBNS enrichment (R)” 1.37.
Under “RBNS enrichment (R)”, `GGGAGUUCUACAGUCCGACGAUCUCCCUUUUGUCUGGACUGACCUGACCCAUGAUGUUUGGACUACAUGUAGGUGAGCGCCCGCAUUGCAAAGCUGACUCAGGUCCACUGGGCUGAAGGUCCCUUGGAGCCCAUGGAAUUCUCGGGUGCCAA` is recorded as 0.614.
For `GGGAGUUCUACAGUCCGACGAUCUGAUGAGUGAAUUCAGUUCCCUACCAACUAAUGCGCAGAAUUGAAGAAUCCCAUCCUGCACACAUUGGUUGGUGCCCUGGGUGGAAUAGCAACGACACCAACUGAUAAAAUGGAAUUCUCGGGUGCCAA`, “RBNS enrichment (R)” read 0.806.
Under “RBNS enrichment (R)”, `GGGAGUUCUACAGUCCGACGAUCGUGUGAGGCCCCCGGAGGCGCCCACCUGCCCAGUUAGCCCGGCCAAGGACACUGAUGAGUCCUGCUGCUCGGGAAGGCCUGAGGGAAGCCCACCCGCCCCAGAGACUGCCUGGAAUUCUCGGGUGCCAA` is recorded as 0.351.
`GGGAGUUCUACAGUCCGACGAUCGUACAGUUUAACGGGGAUAGAGGGGGAAUAAUGUCCAUACCAUUGUGUGUGGAGGAUUUACAGCUAAGCUGUAGUUGCAGAGUACAUGUACAGUAAUGAAGUUCACUGUGUGGAAUUCUCGGGUGCCAA`: “RBNS enrichment (R)” 0.791.
Under “RBNS enrichment (R)”, `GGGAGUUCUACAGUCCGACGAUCCCAUAAAACCAUUUUUUGAACCAAUCAGUAAUUUUAAGGUUUUGUUUGUUCUAAAUGUAAGAGUUCAGACUCACAUUCUAUUAAAAUUUAGCCCUAAAAUGACAAGCCUUUGGAAUUCUCGGGUGCCAA` is recorded as 0.556.
For `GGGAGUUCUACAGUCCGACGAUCUGUCAGCCACCACACUGCCACCACCCUGCACACAGUCUGGGUCCCUCCGAGAGAAGCACGCCAACCUUAACAUCCCCUACAGCAUCUUGGUGCUUCACACACCAUUUAGGUGGAAUUCUCGGGUGCCAA`, “RBNS enrichment (R)” read 9.55.
`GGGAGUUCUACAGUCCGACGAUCAAUGUCACAAGAAAUUGUUUUCUGCAAAUUCUCUAGUAUAGAAAGUUUUGUAGAAGAAAAAUUAUUGUGUUUAGGGGUAUAAUAUUAUAUGUUUUCAUAUUAUGAAAUGAUGGAAUUCUCGGGUGCCAA` — result for “RBNS enrichment (R)”: 0.589.

Sample 2
Target: Centromere-binding protein 1, full length, N-terminal tag (CBF1, Saccharomyces cerevisiae, UniProt P17106, residues 1-351)
Chain of UniProt P17106 (whole entry, looked up): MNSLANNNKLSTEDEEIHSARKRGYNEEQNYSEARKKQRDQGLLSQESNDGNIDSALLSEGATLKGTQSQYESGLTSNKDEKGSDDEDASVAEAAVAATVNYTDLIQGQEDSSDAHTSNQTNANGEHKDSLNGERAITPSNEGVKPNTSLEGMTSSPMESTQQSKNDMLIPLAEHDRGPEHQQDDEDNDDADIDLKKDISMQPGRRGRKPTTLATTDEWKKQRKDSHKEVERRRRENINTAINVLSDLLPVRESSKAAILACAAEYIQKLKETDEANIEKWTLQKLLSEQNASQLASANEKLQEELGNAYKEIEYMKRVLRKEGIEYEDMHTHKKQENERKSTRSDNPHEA
Method: protein-binding microarray
Molecule type: double-stranded DNA, one strand shown
Matrix: in vitro
Concentration: 0.8 µM
Setting: whole 60-bp probe, no competitor
Direction: higher = stronger binding
The fluorescence intensity of `TGTACGAAGCTATACGTGACTAATATAGTAGTTAGGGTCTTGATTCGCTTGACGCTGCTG` is reported as 894 a.u.
For `GAAATAATTGTACATCATGTTATCGGCGTTGATTAGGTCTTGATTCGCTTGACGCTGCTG`, the fluorescence intensity was 589 a.u.
`CCTAACTACTATAATCACGACTAATAGCTTCGTACAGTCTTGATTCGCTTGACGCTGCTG` gave a fluorescence intensity of 574 a.u.
The fluorescence intensity of `GAACTTTTAGTTAATCAGGTGTGAGGTGGAATGTAGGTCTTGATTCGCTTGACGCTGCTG` is reported as 982 a.u.
For `GAATAACAAACGTCGCACGCGTTTGAAAGTTATTAGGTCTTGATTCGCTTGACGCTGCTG`, the fluorescence intensity was 563 a.u.
`CTAATGTGAATAGATCATGAGACGCGAAGCCCTTTCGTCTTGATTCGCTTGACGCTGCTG` has a fluorescence intensity of 608 a.u.
With `CTAAATTCAATAGATCGCCTGATGTTTTCTGTGTTCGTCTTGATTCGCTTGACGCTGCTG` the fluorescence intensity was 537 a.u.
With `CTAACCATTGAAGGGTCGGTGACGTGGAAATTTTTCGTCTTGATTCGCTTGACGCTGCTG` the fluorescence intensity was 510 a.u.
For `CTAAGTAACGTAAGTCACGTGCTTTCTAACCATTTCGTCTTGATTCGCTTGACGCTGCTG`, the fluorescence intensity was 21500 a.u.
With `GAAAGTCTTAAATAGCACGAGGAAATTTCCATGTAGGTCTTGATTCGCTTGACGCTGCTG` the fluorescence intensity was 725 a.u.
`GAAAATAACAGCAAACAGGTGATGTAACTTATATAGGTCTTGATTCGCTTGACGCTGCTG` has a fluorescence intensity of 662 a.u.
With `GAACTGAAAGATTGATTGGTGATGCTGCTAAGATAGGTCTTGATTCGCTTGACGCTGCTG` the fluorescence intensity was 582 a.u.
For `GAAAACTGCTGTGGTGTCATGATAGACGAAATGTAGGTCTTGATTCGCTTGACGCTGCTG`, the fluorescence intensity was 616 a.u.
With `TGTACGAAGCTATTCAACGTGGGTATAGTAGTTAGGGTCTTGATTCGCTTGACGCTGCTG` the fluorescence intensity was 556 a.u.
`CTATTCCCCTTAGCACAGCTGATCCAACAATTTTTCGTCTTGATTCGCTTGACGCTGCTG` gave a fluorescence intensity of 591 a.u.
With `GAACGCTTAAACTGTGACCAAATATGGATTACGTAGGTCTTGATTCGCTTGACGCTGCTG` the fluorescence intensity was 567 a.u.

Sample 3
Target: CCNA2, cyclin fold, Cln2 fusion (human)
Method: yeast growth competition, sequencing
Matrix: yeast
Setting: strong parent motif
Relative to: not given
Direction: higher = stronger binding
Starting sequence: SCAPER docking peptide (human); SNARRSLNFGGST; partner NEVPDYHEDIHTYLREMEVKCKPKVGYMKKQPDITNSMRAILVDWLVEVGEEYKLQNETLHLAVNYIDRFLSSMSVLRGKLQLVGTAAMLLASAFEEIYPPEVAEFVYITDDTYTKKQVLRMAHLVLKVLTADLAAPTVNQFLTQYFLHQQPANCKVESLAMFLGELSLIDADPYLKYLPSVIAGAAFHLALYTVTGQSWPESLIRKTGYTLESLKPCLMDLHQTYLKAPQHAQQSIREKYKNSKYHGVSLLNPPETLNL
`SNQRRSLNFGGST [A3Q]`: “normalised enrichment score” -0.0442.
`SHARRSLNFGGST [N2H]`: “normalised enrichment score” 6.55.
`SNARRSFNFGGST [L7F]` — result for “normalised enrichment score”: 1.84.
Under “normalised enrichment score”, `SNGRRSLNFGGST [A3G]` is recorded as 2.07.
Under “normalised enrichment score”, `SNARFSLNFGGST [R5F]` is recorded as 0.523.
`SNARRSLNEGGST [F9E]` — result for “normalised enrichment score”: 0.161.
Under “normalised enrichment score”, `SNARRSLNFYGST [G10Y]` is recorded as 6.15.
For `SNARRDLNFGGST [S6D]`, “normalised enrichment score” read 1.54.
`SNARRSLNRGGST [F9R]`: “normalised enrichment score” 1.04.
`SNARRSLNYGGST [F9Y]`: “normalised enrichment score” 3.97.
`SNARRSGNFGGST [L7G]` — result for “normalised enrichment score”: 0.524.
Under “normalised enrichment score”, `SNARRSLNFGGVT [S12V]` is recorded as 5.43.
`SNARRSLEFGGST [N8E]`: “normalised enrichment score” 4.97.
`SNARRSLNFGAST [G11A]` — result for “normalised enrichment score”: 6.4.
Under “normalised enrichment score”, `SNARESLNFGGST [R5E]` is recorded as 0.547.
`SNARRSLNFGGSG [T13G]`: “normalised enrichment score” 6.15.
Under “normalised enrichment score”, `SNAARSLNFGGST [R4A]` is recorded as 3.55.

Sample 4
Target: UBE2G2 UBC core domain (UniProt P60604)
Method: yeast two-hybrid
Matrix: yeast
Setting: mostly zero background
Relative to: not given
Direction: higher = stronger interaction
B1: SHPRH RING domain (UniProt Q149N8); chain KTSGGVNPEPCPICARQLGKQWAVLTCGHCFCNECISIIIEQYSVGSHRSSIKCAICRQTTSHKEISY
B2: RNF10 RING domain (UniProt Q8N5U6); chain VRICSHEVPSCPICLYPPTAAKITRCGHIFCWACILHYLSLSEKTWSKCPICYSSVHKKDLKS
B3: RNF130 RING domain (UniProt Q86XS8); chain DKETDPDFDHCAVCIESYKQNDVVRILPCKHVFHKSCVDPWLSEHCTCPMCKLNILKALGIV
B4: CBLL1 RING domain (UniProt Q75N03); chain GEKDDTPVHFCDKCGLPIKIYGRMIPCKHVFCYDCAILHEKKGDKMCPGCSDPVQRIEQCT
B5: UBE4B RING domain (UniProt O95155); chain KNARAEIDYSDAPDEFRDPLMDTLMTDPVRLPSGTIMDRSIILRHLLNSPTDPFNRQTLTESMLEPVPELKEQIQAWMREKQNSDH
B6: MARCHF2 RING domain (UniProt Q9P0N8); chain RLLSTVIRALDTPSDGPFCRICHEGANGECLLSPCGCTGTLGAVHKSCLEKWLSSSNTSYCELCHTEFAVEKRPRPLTEWL
B7: RNF17 RING domain (UniProt Q9BXT8); chain SQPWGAAEIQCTRCGRRVSRSSGHHCELQCGHAFCELCLLMTEECTTIICPDCEVATAVNTRQR
B8: ARIH1 RING domain (UniProt Q9Y4X5); chain NTRSSAQDMPCQICYLNYPNSYFTGLECGHKFCMQCWSEYLTTKIMEEGMGQTISCPAHGCDILVDDNTVM
B9: RMND5B RING domain (UniProt Q96G75); chain MKCWYHSVFACPILRQQTSDSNPPIKLICGHVISRDALNKLINGGKLKCPYCPMEQNPADGK
B10: RFPL3 RING domain (UniProt O75679); chain MAALFQEASSCPVCSDYLEKPMSLECGCTVCLKCINSLQKEPHGEDLLCCCCSMVSQRNKIRP
Residues (chain): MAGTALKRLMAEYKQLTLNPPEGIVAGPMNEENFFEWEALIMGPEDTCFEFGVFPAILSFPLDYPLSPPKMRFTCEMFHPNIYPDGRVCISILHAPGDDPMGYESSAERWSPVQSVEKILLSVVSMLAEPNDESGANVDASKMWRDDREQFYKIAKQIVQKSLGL
`B1 (SHPRH RING domain)`: “lacZ reporter activity” 0.
`VPADASPDSKCPICLDRFDNVSYLDRCLHKFCFRCVQEWSKNKAECPLCKQPFDSIFHSV (TOPORS RING domain (UniProt Q9NS56))`: “lacZ reporter activity” 2340.
For `B2 (RNF10 RING domain)`, “lacZ reporter activity” read 0.
`EDVLSKDAGECAICLEELQQGDTIARLPCLCIYHKGCIDEWFEVNRSCPEHPSD (ZNRF2 RING domain (UniProt Q8NHG8))`: “lacZ reporter activity” 0.
`B3 (RNF130 RING domain)`: “lacZ reporter activity” 0.
`B4 (CBLL1 RING domain)` — result for “lacZ reporter activity”: 0.
For `B5 (UBE4B RING domain)`, “lacZ reporter activity” read 0.
For `B6 (MARCHF2 RING domain)`, “lacZ reporter activity” read 0.
For `B7 (RNF17 RING domain)`, “lacZ reporter activity” read 0.
For `PLRRLQEEKLCKICMDRHIAVVFIPCGHLVTCKQCAEAVDRCPMCSAVIDFKQRVF (BIRC8 RING domain (UniProt Q96P09))`, “lacZ reporter activity” read 15700.
`B8 (ARIH1 RING domain)`: “lacZ reporter activity” 0.
`B9 (RMND5B RING domain)`: “lacZ reporter activity” 0.
For `EIKDYKARLTCPCCNMRKKDAVLTKCFHVFCFECVKTRYDTRQRKCPKCNAAFGANDFHR (RNF20 RING domain (UniProt Q5VTR2))`, “lacZ reporter activity” read 0.
For `AAQLLEEKLTCAICLGLYQDPVTLPCGHNFCGACIRDWWDRCGKACPECREPFPDGAELR (TRIM65 RING domain (UniProt Q6PJ69))`, “lacZ reporter activity” read 0.
`B10 (RFPL3 RING domain)` — result for “lacZ reporter activity”: 0.

Repeated from above (sample 3):
`SNARRSGNFGGST [L7G]` — result for “normalised enrichment score”: 0.524.
For `SNARRDLNFGGST [S6D]`, “normalised enrichment score” read 1.54.
`SNARRSLEFGGST [N8E]`: “normalised enrichment score” 4.97.
Under “normalised enrichment score”, `SNAARSLNFGGST [R4A]` is recorded as 3.55.
Under “normalised enrichment score”, `SNARESLNFGGST [R5E]` is recorded as 0.547.
`SNARRSLNRGGST [F9R]`: “normalised enrichment score” 1.04.
`SNARRSFNFGGST [L7F]` — result for “normalised enrichment score”: 1.84.
